Published values gathered from unrelated publications.
Every numbered part comes from another study and shows a few of its results, in no order. Changes are numbered by the printed parent chain.

Study 1
Target: RNA binding protein fox-1 homolog 2, RRM domain, GST-SBP tag (RBFOX2, Homo sapiens, UniProt O43251-10, residues 100-194)
Method: RNA Bind-n-Seq
Molecule type: RNA
Matrix: in vitro
Concentration: 365 nM
Setting: natural RNA segment, single round, ends assumed
Relative to: no-protein control
Direction: higher = stronger binding
All sequences stand within: GGGAGUUCUACAGUCCGACGAUC … UGGAAUUCUCGGGUGCCAA
Target sequence (chain): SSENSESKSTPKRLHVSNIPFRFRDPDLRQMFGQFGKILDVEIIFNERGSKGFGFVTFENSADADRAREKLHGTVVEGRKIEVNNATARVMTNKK
Strand	RBNS enrichment (R)
AGUCCUCCCAAAACUUCCUACCCACACCCUCUUCCCAAGGCCCUCAGGGGCAGAAAACAUCUCCUUCAACCCGUCCCCACUCCUUCCUCUGCAUGACCUUGGGCAAACCC	5.03
UGCCAUGGCCCCGAACCUGCAAUUCCAUCCUAGCGCAGAAGCAUGUGCCUGCCACCUGCUGCCCCUGCAGAGUCAUGUGUGUUUGUGGUGGGCAUUUUAAAUAAUUAUUU	5.87
GGGUCCAUAGGGAGGGACCUCAUGGGGCUGUCACAUCCUAGCAACCUUCUUAGCCUCCUUCCUUCCUUCCACACGGCCCAGAGGCCAGCUCGGCCCCACCCAGAGGGCCU	1.77
AGAUGUCCAGGCGGAUUUGGAGGGUGCAGCCCUGUCUGUGCCUGGGGCUUUAACCCUGUACAACGUCACCGAGAGCAACGCCUCCUACUUGGAUCCUGGAGCCAGUCCCU	0.348
CCACAGGCUCGUCUGUGUCCCUGCCACUCUGAGUUAUCCAGAAACCACCACCUACAAAUGAGGGGACUCAUCUAGAAGACCUCUAAGGUCCCCUUUUGGCUCUGAGGGGU	0.348
GGGUUGGGGGGGCAGGUGCCAGGCCUCACUGCUGUGAAUCUGCCACGCCUGGGGGUCCUAGAGGCUGCCCCACCCCAGUGAUUGGGUAGCAGCUCACAUCCCACCCAGCU	0.373

Study 2
Target: ABI1, truncated, D143A, DHFR fusion (Arabidopsis thaliana)
Method: DHFR PCA, deep sequencing
Matrix: yeast
Setting: methotrexate growth selection, single substitutions
Together with: (+)-ABA 1.4 µM
Relative to: wild-type fitted maximum
Direction: higher = stronger binding
Starting sequence: PYL1, truncated, DHFR fusion (Arabidopsis thaliana); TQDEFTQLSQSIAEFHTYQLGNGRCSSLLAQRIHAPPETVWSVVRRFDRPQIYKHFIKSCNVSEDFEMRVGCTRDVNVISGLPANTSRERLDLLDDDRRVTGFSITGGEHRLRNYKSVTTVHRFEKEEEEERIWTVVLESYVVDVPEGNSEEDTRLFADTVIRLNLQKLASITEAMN
Substitution	relative binding score [%]
S11D	62
R99N	7.6
V118L	10.1
Y53F	9.25

Study 3
Target: Interferon regulatory factor 5, full length, phosphomimetic (IRF5, Homo sapiens, UniProt Q13568-2, residues 1-514, S451D/S453D/S456D/S462D)
Method: protein-binding microarray
Molecule type: double-stranded DNA, one strand shown
Matrix: in vitro
Concentration: 940 nM top
Setting: 60-bp whole probe
Together with: salmon DNA 0.4 mg/ml
Relative to: random background probes
Direction: higher = stronger binding
All sequences stand within: GCCTAGCAC … GTGCTAGGTCTTGATTCGCTTGACGCTGCTG
Strand	fitted relative affinity [z-score]
TTACGTTTCCTTTTCCTTTA	2.59
TTATGACTGCTTATCCTTTA	0.137
GACGGTTTCCTTTCCCTGAC	2.43
TTAGGTTCCGGTTTCGGTAA	8.92
TTAGGTTCCCGTTTCGGTTA	3.86
CGCTCTGTGCTCTTTGGGCT	-0.473
TCAATTATCCTTGTCCCACT	0.564

Further values, each from its own experiment
Substance	target	test	test system	setting	how to read	quantity	value
PhoQ, residues 284 288 289 292 302 303 NLMGRA	PhoP, residues 12 14 15 18 19 LYFRQ (Escherichia coli, UniProt P23836)	Sort-seq, measured: YFP reporter	E. coli	PhoQ-PhoP variant library, together with: 10 µM Mg2+	relative to: high Mg2+ state, higher = stronger signaling	fold induction	5.03

A few entries again (study 1):
Strand	RBNS enrichment (R)
GGGUUGGGGGGGCAGGUGCCAGGCCUCACUGCUGUGAAUCUGCCACGCCUGGGGGUCCUAGAGGCUGCCCCACCCCAGUGAUUGGGUAGCAGCUCACAUCCCACCCAGCU	0.373
AGUCCUCCCAAAACUUCCUACCCACACCCUCUUCCCAAGGCCCUCAGGGGCAGAAAACAUCUCCUUCAACCCGUCCCCACUCCUUCCUCUGCAUGACCUUGGGCAAACCC	5.03
